Measurements of several laboratories.
Lines come from different studies, so protocols differ.
Cell line: ACHN

Cn1cncc1C1=CN(c2ncnc3[nH]cnc23)CCS1 gave a TGI of 170 µM (renal cancer).
For O=C(Nc1nnc2n3c(Cc4ccccc4)n[nH]c3nc(-c3ccc(Cl)cc3)c1-2)c1ccccc1, the cell growth was 104% (SRB; 10 µM, NCI60 single-dose screen; baseline: untreated).
With O=C1NC(=NCc2cccs2)S/C1=C\c1ccc2ncccc2c1 the IC50 was 4.46 µM (MTS; NCI60 panel).
CCOc1ccc(-c2nc3cc(-c4nc5cc(N6CCN(C)CC6)ccc5[nH]4)ccc3[nH]2)cc1OCC gave a growth percent of 81.9% (SRB; 10 µM, 48 h).
The log10 TGI of Cc1cc(C)n(C(=S)[S][Au][PH](CCCCCC[PH]([Au][S]C(=S)n2nc(C)cc2C)(c2ccccc2)c2ccccc2)(c2ccccc2)c2ccccc2)n1 is reported as over -4 (cell growth, NCI-60 screen; renal cancer).
CCOC(=O)CSc1nc(-c2ccc(Cl)cc2)c2c(NC(=O)c3ccccc3)nnc-2[nH]1 gave a cell growth of 101% (SRB; 10 µM, NCI60 single-dose screen; baseline: untreated).
CCN(CC)c1ccc(C=NNC(=O)CSc2nc3ccccc3c(=O)n2Cc2ccc(S(N)(=O)=O)cc2)c(O)c1 gave a TGI of over 100 µM (NCI five-dose screen).
For Cc1cc(=O)[nH]c(=O)n1Cc1cn(-c2cc3ccccc3oc2=O)nn1, the growth percentage was 98.9% (NCI60 single-dose screen; 10 µM).
The growth percent of CCCN1CCN(c2ccc3nc(-c4ccc5nc(-c6cc(OC)ccc6OC)[nH]c5c4)[nH]c3c2)CC1 is reported as 106% (SRB; 10 µM, 48 h).
With O=c1ccn(Cc2cn(-c3c4ccccc4nc4ccccc34)nn2)c(=O)[nH]1 the growth percentage was 95.4% (NCI60 single-dose screen; 10 µM).
For C#C[C@@]1(O)[C@@H](CO)O[C@@H](n2cc(I)c3c(N)ncnc32)[C@@H]1O, the TGI was over 100 µM (SRB; NCI-60 screen).
CCCCN1CCN(c2ccc3[nH]c(-c4ccc5[nH]c(-c6ccc(C(F)(F)F)cc6)nc5c4)nc3c2)CC1 gave a growth percent of -99.5% (SRB; 10 µM, 48 h).
With CCCC(CCC)C(=O)OCc1cn(-c2c3ccccc3nc3ccccc23)nn1 the growth percentage was 100% (NCI60 single-dose screen; 10 µM).
With COc1cnc2cccc(N3CCc4c(cc(Cn5ccnc5C)cc4-c4cn(C)nc4C(F)(F)F)C3=O)c2c1 the EC50 was 8.68 µM (cell growth, inhibitor; 120 h).
For Cc1cc(-c2ccccc2)n(-c2nc(-c3ccc(Cl)cc3)c3c(NC(=O)c4ccccc4)nnc-3[nH]2)n1, the cell growth was 92% (SRB; 10 µM, NCI60 single-dose screen; baseline: untreated).
CN1CCN(c2ccc3[nH]c(-c4ccc5[nH]c(-c6ccc(C(F)(F)F)cc6)nc5c4)nc3c2)CC1 gave a growth percent of 55.6% (SRB; 10 µM, 48 h).
With Cc1n[nH]c2nc(-c3ccc(Cl)cc3)c3c(NC(=O)c4ccccc4)nnc-3n12 the cell growth was 107% (SRB; 10 µM, NCI60 single-dose screen; baseline: untreated).
With COC(=O)/C=C1\C(=O)C=C2C3CC4CC(CCC4(C)N21)C3(C)NC(C)=O (stereo not shown) the IC50 was 20.2 µM (cell growth; NCI screen).
With CCCN1CCN(c2ccc3[nH]c(-c4ccc5[nH]c(-c6cc(OC)c(OC)c(OC)c6)nc5c4)nc3c2)CC1 the growth percent was 96.4% (SRB; 10 µM, 48 h).
For CCn1cc(-c2cc(Cn3ccnc3)cc3c2CCN([C@H](c2cc(OC)ccn2)C2CC2)C3=O)c(C(F)(F)F)n1, the EC50 was 15.7 µM (cell growth, inhibitor; 120 h).
With NNc1nc(-c2ccc(Cl)cc2)c2c(NC(=O)c3ccccc3)nnc-2[nH]1 the cell growth was 108% (SRB; 10 µM, NCI60 single-dose screen; baseline: untreated).
For CCCCN1CCN(c2ccc3[nH]c(-c4ccc5[nH]c(-c6ccc(OCC)cc6)nc5c4)nc3c2)CC1, the growth percent was 63.9% (SRB; 10 µM, 48 h).

A few entries again:
Cn1cncc1C1=CN(c2ncnc3[nH]cnc23)CCS1 gave a TGI of 170 µM (renal cancer).
For O=C(Nc1nnc2n3c(Cc4ccccc4)n[nH]c3nc(-c3ccc(Cl)cc3)c1-2)c1ccccc1, the cell growth was 104% (SRB; 10 µM, NCI60 single-dose screen; baseline: untreated).
With O=C1NC(=NCc2cccs2)S/C1=C\c1ccc2ncccc2c1 the IC50 was 4.46 µM (MTS; NCI60 panel).
